Measurements from different studies.
Each line is one published result; not all experiments were run side by side. Numbers after ± are the reported error.
Cell line: HCT-116

With COc1cc(C)cc2c1OCO2 the GI50 was 32.9 µM (cell growth or viability, MTT; 72 h).
For CC(C)C[C@H](NC(=O)[C@H](C)NC(=O)[C@H](CCCCN)NC(=O)[C@H](C)NC(=O)[C@H](C)NC(=O)[C@@H]1CSCc2ccc(cc2)CSC[C@H](NC(=O)[C@H](CCCCN)NC(=O)[C@H](Cc2ccccc2)NC(=O)CN)C(=O)N[C@@H](CC(C)C)C(=O)N[C@@H](CC(C)C)C(=O)N[C@@H](CCCCN)C(=O)N1)C(=O)N[C@H](C(=O)N[C@@H](CCCCN)C(=O)N[C@H](C(=O)N[C@H](C(=O)N[C@@H](CC(C)C)C(=O)N[C@@H](Cc1ccccc1)C(N)=O)C(C)C)[C@@H](C)O)C(C)C, the IC50 was 11.8 µM (cell growth or viability, CCK-8).
CCCc1cc(OC)c2c(c1OC)OCO2 has a GI50 of 112 µM (cell growth or viability, MTT; 72 h).
For CC(C)CCC[C@@H](C)[C@H]1CC[C@H]2[C@@H]3CC=C4C[C@@H](OC(=O)NCCCCCC(=O)N[C@@H](CCCCNC(=O)CCCc5ccc(N(CCCl)CCCl)cc5)C(=O)NCCCCCC(=O)N[C@H](CCCNC(=N)N)C(=O)N[C@@H](CCCNC(=N)N)C(=O)N[C@@H](Cc5c(F)c(F)c(F)c(F)c5F)C(=O)N[C@@H](CCCNC(=N)N)C(=O)N[C@@H]5CSCc6ccccc6CSC[C@@H](C(=O)N[C@H](CCCNC(=N)N)C(=O)N[C@@H](CC6CCCCC6)C(=O)N[C@@H](CCCNC(=N)N)C(=O)N6Cc7ccccc7C6C(N)=O)NC(=O)[C@H](Cc6cccc7ccccc67)NC(=O)[C@H](Cc6ccc(O)cc6)NC5=O)CC[C@]4(C)[C@H]3CC[C@]12C (stereo partly shown), the EC50 was 7.9 ± 1.3 µM.
O=C(CN1C(=O)S/C(=C\c2ccccc2Br)C1=O)Nc1ccc(C(=O)Nc2ccc(F)cc2)cc1 gave a selectivity index of 16.9 (MTT; baseline: IC50 Vero over IC50 HCT-116).
COC1CC(=O)N(C)C=CCCCC(=O)N(C)C(C(C)C)C(=O)N(C)C(CC(C)C)C(=O)OC(C(C)C)CC(C)C1 (stereo not shown) — result for “pathway activation z-score”: 2 (RNA sequencing, measured: cholesterol biosynthesis superpathway; 20 µM, 12 h; direction not given).
With COc1cc(C)c(OC)c2c1OCO2 the GI50 was greater than 250 µM (cell growth or viability, MTT; 72 h).
The IC50 of CC[C@H](C)[C@H](NC(=O)[C@H](CO)NC(=O)[C@H](CCCNC(=N)N)NC(=O)[C@@H]1CCCN1C(=O)[C@H](Cc1c[nH]c2ccccc12)NC(=O)[C@H](CCCNC(=N)N)NC(=O)[C@H](CCCNC(=N)N)NC(C)=O)C(=O)N[C@@H](CC(C)C)C(=O)N[C@@H](CC(=O)O)C(=O)N[C@@H](CCC(=O)O)C(=O)N[C@@H](Cc1c[nH]cn1)C(=O)N[C@H](C(=O)N[C@@H](CCCNC(=N)N)C(=O)N[C@@H](CCCNC(=N)N)C(=O)N[C@H](C(=O)N[C@@H](Cc1c[nH]c2ccccc12)C(=O)N[C@@H](CCCNC(=N)N)C(=O)NCCCCCC(=O)N[C@@H](C)C(=O)N[C@@H](CC(C)C)C(=O)N[C@@H](C)C(=O)N1CCC[C@H]1C(=O)N[C@@H](Cc1ccc(O)cc1)C(=O)N[C@H](C(=O)N1CCC[C@H]1C(=O)N[C@@H](Cc1ccc(O)cc1)C(=O)NCC(=O)N[C@@H](CCCNC(=N)N)C(=O)N[C@@H](CCCCN)C(=O)N[C@@H](CCCCN)C(=O)N[C@@H](CCCNC(=N)N)C(=O)N[C@@H](CCCNC(=N)N)C(=O)N[C@@H](CCC(N)=O)C(=O)N[C@@H](CCCNC(=N)N)C(=O)N[C@@H](CCCNC(=N)N)C(=O)N[C@@H](CCCNC(=N)N)C(N)=O)[C@@H](C)CC)C(C)C)C(C)C is reported as 9.95 µM (cell growth or viability, CCK-8).
CC1=CCC23OC2(C)CCC2C(C[N+](C)(C)C)C(=O)OC2C13.[I-] (stereo not shown) has an inhibition of 81.8% (cell growth or viability, SRB; 8.3 µM).
With OC[C@H]1[C@@H](O)[C@@H](O)CN1Cc1ccccc1 the IC50 was greater than 200 µM (cell growth or viability, MTS; 72 h).
For C=CCc1cc2c(c(OC)c1OC)OCO2, the GI50 was greater than 250 µM (cell growth or viability, MTT; 72 h).
For CC/C=C\C/C=C\C/C=C\C/C=C\C/C=C\C/C=C\CCC(=O)Nc1ccn(C2OC(CO)C(O)C2(F)F)c(=O)n1 (stereo not shown), the CC50 was 44.4 µM (NCI60 screen).
CCCc1cc(OC)c(OC)c(OC)c1OC has a GI50 of greater than 250 µM (cell growth or viability, MTT; 72 h).
With CC(C)C[C@H](NC(=O)[C@H](CC(C)C)NC(=O)[C@H](CC(=O)O)NC(=O)[C@H](CCCCN)NC(=O)[C@H](Cc1ccccc1)NC(=O)CN)C(=O)N[C@@H](CCCCN)C(=O)N[C@H]1CSCc2ccc(cc2)CSC[C@@H](C(=O)N[C@@H](CC(C)C)C(=O)N[C@H](C(=O)N[C@@H](CCCCN)C(=O)N[C@H](C(=O)N[C@H](C(=O)N[C@@H](CC(C)C)C(=O)N[C@@H](Cc2ccccc2)C(N)=O)C(C)C)[C@@H](C)O)C(C)C)NC(=O)[C@H](CCCCN)NC(=O)[C@H](C)NC(=O)[C@H](C)NC1=O the IC50 was 10.8 µM (cell growth or viability, CCK-8).
For CCCCn1cc(C(=O)O)c(=O)c2cc(F)c(Nc3cccc(Cl)c3)c(N)c21, the IC50 was 0.84 µM (cell proliferation, SRB).
The GI50 of C[P+](c1ccccc1)(c1ccccc1)c1ccccc1 is reported as 13.7 µM (cell growth or viability; 72 h).
The apoptotic cells of Cc1cc(O)cc(-c2nc(Nc3cc(C(F)(F)F)cc(C(F)(F)F)c3)ncc2-c2ccnc(Cl)c2)c1 is reported as 2.1 (annexin V-FITC/PI flow cytometry; 10 µM, 48 h, unit not given; baseline: control).
The IC50 of CC(C)C[C@H](NC(=O)[C@H](C)NC(=O)[C@H](CCCCN)NC(=O)[C@H](C)NC(=O)[C@H](C)NC(=O)CNC(=O)[C@H](CCCCN)NC(=O)[C@H](CC(C)C)NC(=O)[C@H](CC(C)C)NC(=O)[C@H](CC(=O)O)NC(=O)[C@H](CCCCN)NC(=O)[C@H](Cc1ccccc1)NC(=O)CN)C(=O)N[C@H](C(=O)N[C@@H](CCCCN)C(=O)N[C@H](C(=O)N[C@H](C(=O)N[C@@H](CC(C)C)C(=O)N[C@@H](Cc1ccccc1)C(N)=O)C(C)C)[C@@H](C)O)C(C)C is reported as 18.8 µM (cell growth or viability, CCK-8).
COc1ccc(NC(=O)c2ccc(NC(=O)CN3C(=O)S/C(=C\c4ccccc4OC)C3=O)cc2)cc1 gave a selectivity index of 4.26 (MTT; baseline: IC50 Vero over IC50 HCT-116).
CC(C)C[C@H](NC(=O)[C@H](C)NC(=O)[C@H](CCCCN)NC(=O)[C@H](C)NC(=O)[C@H](C)NC(=O)[C@@H]1CSCc2cccc(c2)CSC[C@H](NC(=O)[C@H](CCCCN)NC(=O)[C@H](Cc2ccccc2)NC(=O)CN)C(=O)N[C@@H](CC(C)C)C(=O)N[C@@H](CC(C)C)C(=O)N[C@@H](CCCCN)C(=O)N1)C(=O)N[C@H](C(=O)N[C@@H](CCCCN)C(=O)N[C@H](C(=O)N[C@H](C(=O)N[C@@H](CC(C)C)C(=O)N[C@@H](Cc1ccccc1)C(N)=O)C(C)C)[C@@H](C)O)C(C)C gave an IC50 of 20.9 µM (cell growth or viability, CCK-8).
[Ga+3].[O-]c1ccc(Br)c2cccnc12.[O-]c1ccc(Br)c2cccnc12.[O-]c1ccc(Br)c2cccnc12 gave an inhibition of 83.8% (cell growth or viability, SRB; 10 µM, 48 h).
With CCCCCCCCCCCCCCCC[P+](c1ccccc1)(c1ccccc1)c1ccccc1 the GI50 was 0.451 µM (cell growth or viability, MTT; 72 h).
With C=C(C)C[C@H](OC)[C@H](O)C(=O)N[C@@H](OC)[C@@H]1C[C@H](O)C(C)(C)[C@@H](C[C@H](O)[C@@H](C)[C@H]2Cc3c(C)c(O)cc(O)c3C(=O)O2)O1 the IC50 was 0.003 µM (cell growth or viability).
COc1cc(C)c(OC)c(OC)c1OC gave a GI50 of greater than 250 µM (cell growth or viability, MTT; 72 h).
C=C(C)CC(OC)C(O)C(=O)NC(OC)C1CC(OC(C)=O)C(C)(C)C(CC(O)C(C)C2Cc3c(C)c(O)cc(O)c3C(=O)O2)O1 (single isomer, unassigned; (+)) gave an IC50 of 0.002 µM (cell growth or viability).

Excerpt of the above:
For CC(C)C[C@H](NC(=O)[C@H](C)NC(=O)[C@H](CCCCN)NC(=O)[C@H](C)NC(=O)[C@H](C)NC(=O)[C@@H]1CSCc2ccc(cc2)CSC[C@H](NC(=O)[C@H](CCCCN)NC(=O)[C@H](Cc2ccccc2)NC(=O)CN)C(=O)N[C@@H](CC(C)C)C(=O)N[C@@H](CC(C)C)C(=O)N[C@@H](CCCCN)C(=O)N1)C(=O)N[C@H](C(=O)N[C@@H](CCCCN)C(=O)N[C@H](C(=O)N[C@H](C(=O)N[C@@H](CC(C)C)C(=O)N[C@@H](Cc1ccccc1)C(N)=O)C(C)C)[C@@H](C)O)C(C)C, the IC50 was 11.8 µM (cell growth or viability, CCK-8).
CCCc1cc(OC)c2c(c1OC)OCO2 has a GI50 of 112 µM (cell growth or viability, MTT; 72 h).
For CC(C)CCC[C@@H](C)[C@H]1CC[C@H]2[C@@H]3CC=C4C[C@@H](OC(=O)NCCCCCC(=O)N[C@@H](CCCCNC(=O)CCCc5ccc(N(CCCl)CCCl)cc5)C(=O)NCCCCCC(=O)N[C@H](CCCNC(=N)N)C(=O)N[C@@H](CCCNC(=N)N)C(=O)N[C@@H](Cc5c(F)c(F)c(F)c(F)c5F)C(=O)N[C@@H](CCCNC(=N)N)C(=O)N[C@@H]5CSCc6ccccc6CSC[C@@H](C(=O)N[C@H](CCCNC(=N)N)C(=O)N[C@@H](CC6CCCCC6)C(=O)N[C@@H](CCCNC(=N)N)C(=O)N6Cc7ccccc7C6C(N)=O)NC(=O)[C@H](Cc6cccc7ccccc67)NC(=O)[C@H](Cc6ccc(O)cc6)NC5=O)CC[C@]4(C)[C@H]3CC[C@]12C (stereo partly shown), the EC50 was 7.9 ± 1.3 µM.
O=C(CN1C(=O)S/C(=C\c2ccccc2Br)C1=O)Nc1ccc(C(=O)Nc2ccc(F)cc2)cc1 gave a selectivity index of 16.9 (MTT; baseline: IC50 Vero over IC50 HCT-116).
